Measurements pooled from the literature.
Every numbered part comes from another study and shows a few of its results, in no order.

Sample 1
Target: Interferon regulatory factor 5, full length, phosphomimetic (IRF5, Homo sapiens, UniProt Q13568-2, residues 1-514, K96S/S451D/S453D/S456D/S462D)
Method: protein-binding microarray
Form: double-stranded DNA, one strand shown
Matrix: in vitro
Concentration: 250 nM
Setting: 60-bp whole probe
Together with: salmon DNA 0.4 mg/ml
Reference: random background probes
Reading: higher = stronger binding
Shared flanks, not repeated: GCCTAGCAC … GTCTTGATTCGCTTGACGCTGCTG
The log fluorescence of `TTACGTTTCGGACTGGGTTAGTGCTAG` is reported as 5.78 z-score.
`TCAGGAAATGGGAAACCCACTGTGCTA` has a log fluorescence of 0.0533 z-score.
For `GACGGTTTCTGGACTGGGGACGTGCTA`, the log fluorescence was 0.837 z-score.
`TTAGCTATCCTTATCCTTTAGTGCTAG` has a log fluorescence of 0.524 z-score.
`TTAGATATCGGGTTACGATTAGTGCTA` has a log fluorescence of 2.96 z-score.

Sample 2
Target: Histone acetyltransferase KAT6A, both winged helices, GST fusion (KAT6A, Homo sapiens, UniProt Q92794, residues 1-181)
Method: protein binding microarray
Form: double-stranded DNA, one strand shown
Matrix: in vitro
Concentration: not given
Setting: 8-mer, flanks averaged, mean of 2 arrays, mostly near background
Reference: not given
Reading: higher = stronger binding
Residues (chain): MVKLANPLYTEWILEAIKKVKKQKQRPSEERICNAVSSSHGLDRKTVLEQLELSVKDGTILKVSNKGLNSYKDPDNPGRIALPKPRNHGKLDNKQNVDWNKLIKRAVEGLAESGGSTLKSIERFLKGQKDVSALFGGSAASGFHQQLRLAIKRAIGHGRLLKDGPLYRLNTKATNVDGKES
`CCGGTATC` gave an E-score of 0.245.
For `AACTTTAC`, the E-score was -0.0377.
With `AAAAGCTC` the E-score was -0.105.
The E-score of `CAGGGCCA` is reported as -0.137.
`GGAAGCCC` has an E-score of 0.0638.
`TCCGTCGA` has an E-score of 0.211.
The E-score of `AACGTCTG` is reported as -8e-05.

Sample 3
Target: RNA binding protein fox-1 homolog 2, RRM domain, GST-SBP tag (RBFOX2, Homo sapiens, UniProt O43251-10, residues 100-194)
Method: RNA Bind-n-Seq
Form: RNA
Matrix: in vitro
Concentration: 365 nM
Setting: natural RNA segment, single round, ends assumed
Reference: no-protein control
Reading: higher = stronger binding
`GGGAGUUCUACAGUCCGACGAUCUUUACAACAAAAUGUUAAUUAUAUUCUAAAUACAGGGUAUGUUCUAAUCUAUAUUAAGCAAUAAUGCCAGUGCAUAAUCAUUCCAUUUGUUCCUUUAGCAAUCAACCCCAUGGAAUUCUCGGGUGCCAA` — result for “RBNS enrichment (R)”: 0.471.
`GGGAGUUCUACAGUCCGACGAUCGAAUCAACAUAUGGUAGGGAUUACAGUGGGGGCAUUUCUUUAUAUCACCUCUUAAAAACAUUGUUUCCACUUUAAAAGUAAACACUUAAUAAAUUUUUGGAAGAUCUCUGUGGAAUUCUCGGGUGCCAA` — result for “RBNS enrichment (R)”: 0.363.
For `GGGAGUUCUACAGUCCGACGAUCGUGUGGUGGUCUCCAUGGCAACUUGGAGCCAGCCAGGAUGGGGUGGGGAGCGGUGGCACUCGUGGGAGGGAGAGGACCCCCGCCCACAUCCUCCUUCCCCAGGACCUGAGUGGAAUUCUCGGGUGCCAA`, “RBNS enrichment (R)” read 0.427.
`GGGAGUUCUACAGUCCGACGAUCCUGUCAGUUUUUACCACCUAGUAGGCAAUACCUGUUUUGUCUAAUAUUCAAAGUGCAAUUCGCGUCUAGAUUAUCCACACAAUUUCACUAAUUGAAAAAUAUCAAAUUUAUGGAAUUCUCGGGUGCCAA` — result for “RBNS enrichment (R)”: 0.438.
Under “RBNS enrichment (R)”, `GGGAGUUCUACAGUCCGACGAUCUUUUAGGCAACUGCUUUUUCCAUGUUCUGAGAUCUACGGGCUACAACAAAUUUUAUCAGCAGUGUUUUUUGUUUUUUUGAGAUGGAGACUUGCUCUGUCGCCCAGGCUGGUGGAAUUCUCGGGUGCCAA` is recorded as 0.758.

Single results of other studies
The fold induction of `PhoQ, residues 284 288 289 292 302 303 ALASRC` is reported as 8.26 (PhoP, residues 12 14 15 18 19 SQCLL (Escherichia coli, UniProt P23836); Sort-seq, measured: YFP reporter; E. coli; PhoQ-PhoP variant library, together with: 10 µM Mg2+; reference: high Mg2+ state, higher = stronger signaling).

Repeated from above (sample 1):
`TCAGGAAATGGGAAACCCACTGTGCTA` has a log fluorescence of 0.0533 z-score.
For `GACGGTTTCTGGACTGGGGACGTGCTA`, the log fluorescence was 0.837 z-score.
